Results pooled from the literature.
Each numbered part is a random draw from the data of one study; scales do not carry over between parts.

Set 1 — technique: competition protein-binding microarray; form: double-stranded DNA, one strand shown; medium: in vitro; tested at: 2 µM; added: Cbf1 competitor, 0.05 µM; direction: higher = stronger binding
Target: Phosphate system positive regulatory protein PHO4, full length, GST-tagged (PHO4, Saccharomyces cerevisiae, UniProt P07270, residues 1-312)
Setting: whole 60-bp probe, lowest competitor level
Target sequence (chain): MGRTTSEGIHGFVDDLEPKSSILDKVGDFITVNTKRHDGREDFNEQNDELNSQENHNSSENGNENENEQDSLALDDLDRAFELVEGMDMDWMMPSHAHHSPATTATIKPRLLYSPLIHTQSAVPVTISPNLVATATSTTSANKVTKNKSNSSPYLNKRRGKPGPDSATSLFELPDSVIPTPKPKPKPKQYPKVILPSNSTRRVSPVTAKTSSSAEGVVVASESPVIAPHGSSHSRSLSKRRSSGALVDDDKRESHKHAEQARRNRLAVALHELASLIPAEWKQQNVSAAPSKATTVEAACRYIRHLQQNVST
`CTAACGAAGGTTTGGGTGGTGGGTGACAAGCCAAGTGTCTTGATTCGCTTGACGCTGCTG` gave a fluorescence intensity of 4280 a.u.
`TGTACACATAATGGACACGTTTAACAATTAGTGAGCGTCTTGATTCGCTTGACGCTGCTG` has a fluorescence intensity of 11600 a.u.
The fluorescence intensity of `CTTTCCCGATCTTGTCACAGTACTTTAGCACATTTGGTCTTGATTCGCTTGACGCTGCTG` is reported as 4160 a.u.
For `GTCTTGTCTCATTTTCACGTGCGGTTCCCCACTTCAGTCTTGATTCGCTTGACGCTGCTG`, the fluorescence intensity was 13200 a.u.
`CGGGGTTAAGTTTGGGTGGTGGGTGGCTTGCAGCAGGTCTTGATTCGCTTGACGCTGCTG` has a fluorescence intensity of 5540 a.u.
For `CTGTTCTCTGTAATGCATGTGGCCTCTTCCTGAAGTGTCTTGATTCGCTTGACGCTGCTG`, the fluorescence intensity was 12100 a.u.
The fluorescence intensity of `CGCGCTGCCGGCCAAGACGTGATGGTGGTTGTCGACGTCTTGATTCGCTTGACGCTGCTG` is reported as 4260 a.u.
For `CTTTCCCGATCTTGAGTTGTGGGTGTAGCACATTTGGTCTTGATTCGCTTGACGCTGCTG`, the fluorescence intensity was 4840 a.u.

Set 2 — technique: RNAcompete; form: RNA; medium: in vitro; tested at: 20 nM; setting: 7-mer, probes averaged, single round; reference: mean of 7-mers; direction: higher = stronger binding
Target: PABPC1L2, full length, GST fusion (mouse, UniProt A0ABA7IW68)
Target sequence (chain): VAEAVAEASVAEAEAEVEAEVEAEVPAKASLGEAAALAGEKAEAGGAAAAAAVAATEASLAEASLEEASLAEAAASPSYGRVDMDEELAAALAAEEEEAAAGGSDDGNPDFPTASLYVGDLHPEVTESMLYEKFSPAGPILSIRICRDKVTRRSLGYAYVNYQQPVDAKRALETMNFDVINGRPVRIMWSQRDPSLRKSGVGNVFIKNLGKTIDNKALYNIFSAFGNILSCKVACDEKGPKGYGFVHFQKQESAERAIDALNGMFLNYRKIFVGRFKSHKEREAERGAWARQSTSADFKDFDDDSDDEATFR
For `UACCGCU`, the 7-mer Z-score was -0.354.
The 7-mer Z-score of `UGGCCAG` is reported as -0.19.
`AUCGUUC` gave a 7-mer Z-score of -0.418.
`GAGUUUC` has a 7-mer Z-score of -0.481.
The 7-mer Z-score of `UACCACU` is reported as -0.24.
For `CCAACGA`, the 7-mer Z-score was 0.0841.
The 7-mer Z-score of `CAUCCGA` is reported as -0.253.
`GGGGAAC` gave a 7-mer Z-score of 0.131.

Set 3 — mode: inhibitor; tested at: 20 µM
Target: Replicase polyprotein 1ab, nsp13 helicase (rep, Severe acute respiratory syndrome coronavirus 2, UniProt P0DTD1)
`COc1ccn2ncc(-c3nc4[nH]nc(NC(=O)c5ccc(F)cc5)c4cc3F)c2c1` gave an inhibition of 4.36%.
`Cc1cc(N2CCOCC2)cc2[nH]c(-c3c(NC[C@@H](O)c4cccc(Cl)c4)cc[nH]c3=O)nc12` has an inhibition of 12.9%.
For `O=C(CN1CCN(Cc2ccc3c(c2)OCO3)CC1)N1c2ccccc2Sc2ccccc21`, the inhibition was -6.8%.
`CC(C)(Sc1ccc(CCN(CCCCC2CCCCC2)C(=O)NC2CCCCC2)cc1)C(=O)O` gave an inhibition of 6.42%.
`O=C(O)[C@]1(Cc2cccc(Nc3nccs3)n2)CC[C@@H](Oc2cccc(Cl)c2F)CC1` has an inhibition of -0.59%.
`C1CCC(NC2CCCCC2)CC1` has an inhibition of 2.72%.
For `COc1cccc(-c2cc(F)ccc2[C@H]2Cc3nc(N)nc(C)c3C(=O)N2)n1`, the inhibition was 7.93%.
`CN1CCCC(n2nc(Cc3ccc(Cl)cc3)c3ccccc3c2=O)CC1` (stereo not shown) has an inhibition of 9.78%.
The inhibition of `Cc1ccccc1NC(=O)Nc1ccc(CC(=O)N(C)[C@@H](CC(C)C)C(=O)NCC[C@H](NC(=O)[C@@H]2CCCN2S(=O)(=O)c2cc(Cl)cc(Cl)c2)C(=O)O)cc1` is reported as 12.5%.
`Cc1c(C(=O)NC2CCCCC2)sc2nc3ccc(N)cc3n12` gave an inhibition of 1.66%.
With `CN1c2cc3c(cc2N=C(c2ccc(C(=O)O)cc2)c2ccccc21)C(C)(C)CCC3(C)C` the inhibition was 2.86%.
For `O=S1(=O)CCN(CN2CCS(=O)(=O)NC2)CN1`, the inhibition was 2.33%.
With `CCOC(=O)[C@@H](C)Oc1ccc(Oc2nc3ccc(Cl)cc3o2)cc1` the inhibition was 2%.
For `CN1[C@@H]2CC[C@H]1C[C@@H](OC1c3ccccc3CCc3ccccc31)C2`, the inhibition was 7.42%.
`O=C(O)C1=CCCN(CCOC(c2ccc(C(F)(F)F)cc2)c2ccc(C(F)(F)F)cc2)C1` has an inhibition of 3.7%.
The inhibition of `CN1CCN(CCCN2c3ccccc3Sc3ccc(S(=O)(=O)N(C)C)cc32)CC1` is reported as 13.4%.
`CN1CCCCC1CCN1c2ccccc2Sc2ccc([S+](C)[O-])cc21` (stereo not shown) has an inhibition of 4.63%.
`O=C1CNC(=O)CN1` has an inhibition of 6.02%.
For `S=C(NC1CCCCC1)N1CCC(c2cnc[nH]2)CC1`, the inhibition was -1.99%.
With `CN(C)Cc1ccc(S(=O)(=O)n2ccc(/C=C/C(=O)NO)c2)cc1` the inhibition was -3.84%.

Set 4 — cell line: HEK-293T; read-out: pseudovirus infection; technique: FDA-approved drug library screen; organism: VSV pseudotyped with SARS-CoV-2 spike; tested at: 10 µM; time: 16 h; reference: vehicle-treated
The GFP-positive cells of `C[C@@H]1CN(c2c(F)c(N)c3c(=O)c(C(=O)O)cn(C4CC4)c3c2F)C[C@H](C)N1` is reported as 86.9%.
`CC(=O)Oc1cc2c(s1)CCN(C(C(=O)C1CC1)c1ccccc1F)C2` (stereo not shown) gave a GFP-positive cells of 118%.
`CN1C(C(=O)Nc2ccccn2)=C(O)c2ccccc2S1(=O)=O` gave a GFP-positive cells of 74.2%.

Set 5 — organism: SARS-CoV-2; read-out: cytopathic effect; cell line: Vero E6; tested at: 10 µM
`O=C(O)c1ccc(N2C(=O)/C(=C\c3ccc(-c4ccc([N+](=O)[O-])cc4)o3)C=C2c2ccccc2)cc1` gave an inhibition of 43.9%.
`O=[N+]([O-])c1ccc(O)c2ncccc12` has an inhibition of 6.3%.
`O=C1c2c(O)cc(O)cc2O[C@H](c2cc(O)c(O)c(O)c2)[C@H]1O` has an inhibition of 1.1%.
For `O=C(O)c1cc(O)c(O)c(O)c1`, the inhibition was -4.3%.

Excerpt of the above (set 3):
`COc1ccn2ncc(-c3nc4[nH]nc(NC(=O)c5ccc(F)cc5)c4cc3F)c2c1` gave an inhibition of 4.36%.
`Cc1cc(N2CCOCC2)cc2[nH]c(-c3c(NC[C@@H](O)c4cccc(Cl)c4)cc[nH]c3=O)nc12` has an inhibition of 12.9%.
For `O=C(CN1CCN(Cc2ccc3c(c2)OCO3)CC1)N1c2ccccc2Sc2ccccc21`, the inhibition was -6.8%.
`CC(C)(Sc1ccc(CCN(CCCCC2CCCCC2)C(=O)NC2CCCCC2)cc1)C(=O)O` gave an inhibition of 6.42%.
`O=C(O)[C@]1(Cc2cccc(Nc3nccs3)n2)CC[C@@H](Oc2cccc(Cl)c2F)CC1` has an inhibition of -0.59%.
